Published values gathered from unrelated publications.
A part holds a random share of what one study measured.

Study 1
Target: Interferon regulatory factor 7, full length, phosphomimetic (IRF7, Homo sapiens, UniProt Q92985, residues 1-503, S101K/S471D/S472D/S475D/S476D/S477D/S483D/S484D/S487D)
Technique: protein-binding microarray
Form: double-stranded DNA, one strand shown
Medium: in vitro
Concentration: 250 nM
Notes: 60-bp whole probe
Added: salmon DNA 0.4 mg/ml
Baseline: random background probes
Reading: higher = stronger binding
Constant ends, left off below: GCCTAGCAC … GTCTTGATTCGCTTGACGCTGCTG
Residues (chain): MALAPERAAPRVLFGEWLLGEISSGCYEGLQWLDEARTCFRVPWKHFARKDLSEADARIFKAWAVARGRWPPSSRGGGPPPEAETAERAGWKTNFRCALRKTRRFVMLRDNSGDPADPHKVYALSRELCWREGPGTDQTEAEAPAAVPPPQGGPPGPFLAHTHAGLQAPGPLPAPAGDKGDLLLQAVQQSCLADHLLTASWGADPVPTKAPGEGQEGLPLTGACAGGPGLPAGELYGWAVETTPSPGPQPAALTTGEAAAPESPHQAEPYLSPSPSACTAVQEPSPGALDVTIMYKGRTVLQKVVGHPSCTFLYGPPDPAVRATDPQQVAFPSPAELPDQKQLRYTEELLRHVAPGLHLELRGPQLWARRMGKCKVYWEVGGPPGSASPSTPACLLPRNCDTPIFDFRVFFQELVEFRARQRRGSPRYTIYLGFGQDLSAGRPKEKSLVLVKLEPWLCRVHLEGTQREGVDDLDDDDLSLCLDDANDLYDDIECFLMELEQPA
For `TTAGGTTTCGGGTATCGGCTAGTGCTA`, the log fluorescence was 6.92 z-score.
With `ATAGAACTGAGTCTCGATTAGTGCTAG` the log fluorescence was 1.33 z-score.
The log fluorescence of `TCAGCTCCCTTTCTCTCTGTGTGCTAG` is reported as 0.16 z-score.
The log fluorescence of `TTAGATCTCAGTCTCGATAAGTGCTAG` is reported as 0.503 z-score.
`TCAATCGTCCCTTTGAGACTGTGCTAG` gave a log fluorescence of 0.158 z-score.
`TTAGGTTGCCTTCTCCTTTAGTGCTAG` has a log fluorescence of -0.0998 z-score.
For `TCACCCCTCTCTTTCCAACTGTGCTAG`, the log fluorescence was 0.382 z-score.
The log fluorescence of `GCCGGTTTCGGTCTCGGGACGTGCTAG` is reported as 8.17 z-score.
The log fluorescence of `TTAGAACCGGGGTATCGATTAGTGCTA` is reported as 0.395 z-score.
`GACGATTCCAGTTTCGAGGCGTGCTAG` gave a log fluorescence of 3.08 z-score.
With `GCCGGTTCCGGTTTCGGGACGTGCTAG` the log fluorescence was 7.88 z-score.
`TACTGGACTGGGGTTTCCCGGTGCTAG` gave a log fluorescence of -0.47 z-score.
With `GACGGAGTGGGTCTCGGGACGTGCTAG` the log fluorescence was -0.555 z-score.
For `TCACATATCGGGGTGCGCACTGTGCTA`, the log fluorescence was -0.0129 z-score.
With `GACGGAATCGGTTTCGGGACGTGCTAG` the log fluorescence was 6.08 z-score.
`GACGGTTTCCTTATCCTGGCGTGCTAG` gave a log fluorescence of 3.11 z-score.
`TTAGGTTTTCTTCTCCTTTAGTGCTAG` has a log fluorescence of 1.23 z-score.
The log fluorescence of `GACGGTTTCGGTTTTGGGACGTGCTAG` is reported as 13.7 z-score.
For `GACGCTTTCGGACTGGGGACGTGCTAG`, the log fluorescence was 0.796 z-score.
With `GACGGCCTGGACTATCGGGACGTGCTA` the log fluorescence was -0.917 z-score.
With `TTAGGTCTCCGTTTCCTTTAGTGCTAG` the log fluorescence was 2.55 z-score.
The log fluorescence of `TCACAATTTGCTTTAGTACTGTGCTAG` is reported as 0.35 z-score.
`AATTTTTTTTCTAACTAAAAGTGCTAG` has a log fluorescence of 0.549 z-score.
`TCACATGTTGCTCTCCGACTGTGCTAG` gave a log fluorescence of 0.0459 z-score.
`TTAGGTGTCGGGACTGGGTTAGTGCTA` gave a log fluorescence of -0.856 z-score.

Study 2
Target: Histone acetyltransferase KAT6A, winged helix 2, GST fusion (KAT6A, Homo sapiens, UniProt Q92794, residues 85-181)
Technique: protein binding microarray
Form: double-stranded DNA, one strand shown
Medium: in vitro
Concentration: not given
Notes: 8-mer, flanks averaged, mean of 2 arrays, mostly near background
Baseline: not given
Reading: higher = stronger binding
Construct (chain): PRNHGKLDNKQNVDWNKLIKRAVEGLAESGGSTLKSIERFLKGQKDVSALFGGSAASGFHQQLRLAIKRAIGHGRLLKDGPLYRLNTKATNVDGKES
The E-score of `GGAGGTAA` is reported as -0.0521.
With `CGCCAATC` the E-score was 0.025.
`GACCAGGC` gave an E-score of -0.0319.
The E-score of `AGTAAAAA` is reported as 0.0297.
For `ATCGCTGC`, the E-score was 0.0913.
`AAGCGCTC` has an E-score of 0.0141.
`CTCGGCTC` has an E-score of 0.103.
`AGATGACA` gave an E-score of -0.0693.
`AACGGGCA` gave an E-score of -0.0495.
`ATGAGATC` gave an E-score of -0.016.
`CGATGGGA` has an E-score of -0.101.
With `CCGGCATC` the E-score was 0.167.
With `CAGGCATC` the E-score was 0.0621.
The E-score of `AGAAGCCA` is reported as 0.096.
The E-score of `GTCACTAA` is reported as -0.111.
For `CTGCAGTA`, the E-score was -0.125.
With `ACTCTGCG` the E-score was 0.071.
`GACCACCA` has an E-score of 0.057.
With `GAGCCATC` the E-score was -0.0705.
With `GCCCTCAA` the E-score was 0.00296.
For `ACATGAGG`, the E-score was -0.159.
`AGCAGACT` has an E-score of 0.121.
`AACATTCA` gave an E-score of -0.303.
`GTGACGCA` has an E-score of 0.0743.
The E-score of `CCATGACG` is reported as 0.121.

Study 3
Target: Prothrombin, mature alpha-thrombin (F2, Homo sapiens, UniProt P00734)
Technique: aptamer microarray, sandwich
Form: DNA with 2'F-ANA
Medium: in vitro
Concentration: 200 nM
Notes: whole 15-mer aptamer, many near background
Added: Cy3 exosite-II aptamer, 400 nM
Reading: higher = stronger binding
Oligonucleotide: GGTTGGTGTGGTTGG
For `2'F-ANA at 3 4 7 9 10 13`, “mean fluorescence intensity” read 265 a.u.
For `2'F-ANA at 1 7 8 9 10 12 13 14`, “mean fluorescence intensity” read 61.1 a.u.
`2'F-ANA at 1 2 4 5 8 15`: “mean fluorescence intensity” 67.8 a.u.
Under “mean fluorescence intensity”, `2'F-ANA at 1 2 5 7 8 10 13` is recorded as 47.3 a.u.
`2'F-ANA at 1 4 5 6 7 10 11 12 13 14 15` — result for “mean fluorescence intensity”: 49.3 a.u.
`2'F-ANA at 2 5 6 8 11 14` — result for “mean fluorescence intensity”: 47.1 a.u.
`2'F-ANA at 2 4 5 8 9 10 11 13 14 15` — result for “mean fluorescence intensity”: 188 a.u.
For `2'F-ANA at 2 7 9 10 12 13 14`, “mean fluorescence intensity” read 96.9 a.u.
Under “mean fluorescence intensity”, `2'F-ANA at 1 2 3 4 5 6 10 12 14 15` is recorded as 47 a.u.
`2'F-ANA at 2 4 6 9 12 13` — result for “mean fluorescence intensity”: 290 a.u.
For `2'F-ANA at 2 4 5 7 8 9 11 12 13 14 15`, “mean fluorescence intensity” read 49.4 a.u.
For `2'F-ANA at 4 7 9 12 15`, “mean fluorescence intensity” read 506 a.u.
For `2'F-ANA at 1 3 4 6 7 8 10 11 12 13 14 15`, “mean fluorescence intensity” read 56.3 a.u.
`2'F-ANA at 3 4 8 14 15` — result for “mean fluorescence intensity”: 381 a.u.
`2'F-ANA at 1 3 4 5 6 7 10 12 14` — result for “mean fluorescence intensity”: 45.7 a.u.
`2'F-ANA at 1 6 7 8 11 12 13 14 15`: “mean fluorescence intensity” 73.5 a.u.
Under “mean fluorescence intensity”, `2'F-ANA at 3 5 6 7 9 11 12 14` is recorded as 88.3 a.u.
Under “mean fluorescence intensity”, `2'F-ANA at 1 2 3 6 8 9 10 15` is recorded as 66 a.u.
For `2'F-ANA at 3 5 6 7 10 13 14 15`, “mean fluorescence intensity” read 131 a.u.
`2'F-ANA at 1 3 4 5 6 8 9 10 11 12 13 14 15`: “mean fluorescence intensity” 51 a.u.
`2'F-ANA at 2 3 4 6 7 8 11 14 15` — result for “mean fluorescence intensity”: 259 a.u.
Under “mean fluorescence intensity”, `2'F-ANA at 1 2 4 6 9 13 15` is recorded as 72.7 a.u.
Under “mean fluorescence intensity”, `2'F-ANA at 1 4 7 9 10 11 12 14 15` is recorded as 48 a.u.
For `2'F-ANA at 5 7 9 10 14`, “mean fluorescence intensity” read 47.8 a.u.
Under “mean fluorescence intensity”, `2'F-ANA at 1 2 3 5 7 8 9 10 11 12 13 14` is recorded as 164 a.u.

Study 4
Target: RNA binding protein fox-1 homolog 2, RRM domain, GST-SBP tag (RBFOX2, Homo sapiens, UniProt O43251-10, residues 100-194)
Technique: RNA Bind-n-Seq
Form: RNA
Medium: in vitro
Concentration: 365 nM
Notes: natural RNA segment, single round, ends assumed
Baseline: no-protein control
Reading: higher = stronger binding
Residues (chain): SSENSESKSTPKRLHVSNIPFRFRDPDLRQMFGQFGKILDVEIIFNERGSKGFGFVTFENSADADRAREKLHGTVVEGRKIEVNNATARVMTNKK
For `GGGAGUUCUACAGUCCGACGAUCCUUGAUUUAUCACACAAAGCAGAAUAGUAUUUUUAUAUUUAAAUGUAAAGACAAAAAACUAUAUGUAUGGUUUUGUGGAUUAUGUGUGUUUUGCUAAAGGAAAAAACCAUUGGAAUUCUCGGGUGCCAA`, “RBNS enrichment (R)” read 0.489.
For `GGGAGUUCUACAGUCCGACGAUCUGUAGUAUUUUCUUAUAGUUAUAACUCAAAAAUAUCAAGCAGACAGAGAAUUUAGGCAGUGCAAAGGAGUAUUCUUGUGUGUUUGUGUUGAGUCAUUCUGUCCAUUCCUCUGGAAUUCUCGGGUGCCAA`, “RBNS enrichment (R)” read 0.758.
`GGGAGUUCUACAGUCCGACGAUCAGCCUGGGUGACAGAGCAAGACUCUUAUCUCAAAAAAAAUAAAAUAAAAUAAAAUAAAAUAAAACAUCUUGCCCCUAGCUGAGAGAGAGGUCUCUGAAGAGCAGGCUCAGUGGAAUUCUCGGGUGCCAA` — result for “RBNS enrichment (R)”: 0.795.
`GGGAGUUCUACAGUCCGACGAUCAGGCCGAGUGACAGCCAGCCCUGGAACCCCCCGACCCCCGCAGCUGCUGCAGCCAGUGUGCCAGUGUGCGUUCGACAAAUGGAAAAGCAGAUUGGGGCCAGGGAGUCAGCUGGAAUUCUCGGGUGCCAA` — result for “RBNS enrichment (R)”: 0.712.
For `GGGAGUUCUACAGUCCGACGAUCCGCCAGUGCAUCCAGUACAGCGCCUGCCAUCUUGUGCAAUGUGCAACCCUGGGAUGUGAGCCCUGCCAUGUGCUGGUAACAUGGCUAGGCAUGUUGGGCUUCCCAAACCAUGGAAUUCUCGGGUGCCAA`, “RBNS enrichment (R)” read 1.78.
`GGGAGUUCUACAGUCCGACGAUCAGCAGAGUGAGGAUUCCUGCCUUUCGUAGAGUUUUGUGUGACUUUUUAAAUUAUUCAUGUGUCCCUUAAAAGUUUCACUACGUGGAGAAAAUUCCAGCACCAAGUGUUGUUGGAAUUCUCGGGUGCCAA`: “RBNS enrichment (R)” 1.36.
Under “RBNS enrichment (R)”, `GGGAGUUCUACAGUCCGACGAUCUAGUAAGUCUAAGUCAAGCAAGACUUUGUGAAUUUGUGACAAGUUUGCACUUACAAAAUCAUGUAAAUAUGUCACAUUUUGUUUAACAUUAUUUUUCCAAGUGUUUAGGUUGGAAUUCUCGGGUGCCAA` is recorded as 0.401.
Under “RBNS enrichment (R)”, `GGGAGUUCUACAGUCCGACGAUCAUCUUGCUUCAUGAGAUUGUACCUCUUAAGUGGCUGCGGACCUGGCUAAACUGUGGGUGGCAGUGGGCAUCCCCAUCACCCUUAGCAAGGUGUGGUUCUCAGUGCCUGUCUGGAAUUCUCGGGUGCCAA` is recorded as 0.257.
`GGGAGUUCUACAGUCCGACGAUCUGCUAAAGGUUGUUCUCCUGGGGGAACAGAGUGACUGAAACUGGCUUGUUUGCUACAAGCCCUACCCUCCACUCUUUCAUUCCUUGAAAGCAGUUUGCCUGGUCAGUCAGUGGAAUUCUCGGGUGCCAA` — result for “RBNS enrichment (R)”: 0.733.
`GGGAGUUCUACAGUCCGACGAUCGUAACUAUGGCUUUAUGUUGGGUUACUGUUUAAGGAAAGUUGAUCUGGGCCUUUUUAAAAACAUAAUUAUAUACUUUAGAAAUACAAGGGAUUCCGAUAUGUCAGGACCUUGGAAUUCUCGGGUGCCAA`: “RBNS enrichment (R)” 0.522.
`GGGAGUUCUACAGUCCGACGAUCGCACCGUGCUGUAAAUGUGGCAGACGCAGCCUGCGGCCAGGCUUUUUAUUUAAUGUAAAUAGUUUUUGUUUCCAAUGAGGCAGUUUCUGGUACUCCUAUGCAAUAUUACUUGGAAUUCUCGGGUGCCAA`: “RBNS enrichment (R)” 0.34.
Under “RBNS enrichment (R)”, `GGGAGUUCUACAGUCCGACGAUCCCCACCUCAGCCUCCCGAGUAGCUGGGACUACAGGUGCACACCACCACACCUGGCUAAUUUUUUGUAUUUUUAGUAGAGACAGGGGUUUCUUCCAUGUUGCCCAGGCUGGUGGAAUUCUCGGGUGCCAA` is recorded as 0.546.
